Assay results pooled from the literature.
Every numbered part comes from another study and shows a few of its results, in no order.

Study 1 — mode: inhibitor; tested at: 20 µM
Target: Replicase polyprotein 1ab, nsp13 helicase (rep, Severe acute respiratory syndrome coronavirus 2, UniProt P0DTD1)
Compound	inhibition [%]
CC[C@@H](c1ccc(F)c(F)c1)n1c(C(=O)OC)c(-c2ccno2)[nH]c1=S	0.75
COc1ccc(-c2cc(=O)c3c(O)c(OC)c(O)cc3o2)cc1OC	-0.84
c1ccc(COCCCc2c[nH]cn2)cc1	1.65
C[C@@]1(O)[C@H](O)[C@@H](CO)O[C@H]1n1cnc2c(=O)[nH]c(N)nc21	5.42
CC(C)(C)c1cc(C=C(C#N)C#N)cc(C(C)(C)C)c1O	2.53
Nc1nc(N)c2nc(CNc3ccc(C(=O)N[C@@H](CCC(=O)O)C(=O)O)cc3)cnc2n1	-0.42
CN(C)CCN(Cc1ccc(Cl)cc1)c1ccccn1	4.22
COc1ccc2cc3[n+](cc2c1OC)CCc1cc2c(cc1-3)OCO2	-14.3
O=c1ccc2cc(O[C@@H]3O[C@H](CO)[C@@H](O)[C@H](O)[C@H]3O)c(O)cc2o1	11
OCCCNc1ccccc1	-0.53
CCOC(N)=O	6.14
CN1[C@@H]2CC[C@H]1C[C@@H](OC(=O)c1cc(Cl)cc(Cl)c1)C2	-0.81
CN(C(=O)c1c(O)c2ccccc2n(C)c1=O)c1ccccc1	-3.93
CCNC(=O)N1CCN(CCCC(c2ccc(F)cc2)c2ccc(F)cc2)CC1	-1.67

Study 2 — method: protein binding microarray; molecule type: double-stranded DNA, one strand shown; medium: in vitro; tested at: not given; relative to: not given; reading: higher = stronger binding
Target: Histone acetyltransferase KAT6A, both winged helices, GST fusion (KAT6A, Homo sapiens, UniProt Q92794, residues 1-181)
Notes: 8-mer, flanks averaged, mean of 2 arrays, mostly near background
Target sequence (chain): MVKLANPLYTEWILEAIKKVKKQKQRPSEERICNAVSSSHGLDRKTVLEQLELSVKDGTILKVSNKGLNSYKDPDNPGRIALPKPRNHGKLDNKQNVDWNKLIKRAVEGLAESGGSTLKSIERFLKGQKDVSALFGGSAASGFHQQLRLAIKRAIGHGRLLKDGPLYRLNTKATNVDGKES
Strand	E-score
CACTCCTA	-0.00652
CCCAACCG	-0.0202
ACAAGTGC	-0.163
AGAAGCCC	-0.0182
CCCCCGCA	0.134
CTCAAACA	-0.0101
GAGGTCAC	-0.094
ACCGTTCC	0.19

Study 3 — method: RNA Bind-n-Seq; molecule type: RNA; medium: in vitro; tested at: 365 nM; relative to: no-protein control; reading: higher = stronger binding
Target: RNA binding protein fox-1 homolog 2, RRM domain, GST-SBP tag (RBFOX2, Homo sapiens, UniProt O43251-10, residues 100-194)
Notes: natural RNA segment, single round, ends assumed
All sequences stand within: GGGAGUUCUACAGUCCGACGAUC … UGGAAUUCUCGGGUGCCAA
Construct (chain): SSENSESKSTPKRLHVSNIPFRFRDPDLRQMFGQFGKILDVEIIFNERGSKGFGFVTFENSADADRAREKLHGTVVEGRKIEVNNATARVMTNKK
Strand	RBNS enrichment (R)
UAAAUCCUUCAGGGGCGGGGACCGCCUUGCUCGGGAAGGAAGGUGCCAUGGCCUGCACCGUGGCGGUGGAAGAGAGCAUAGCACAUCACUACAACAACCAGAUCAGGACG	0.276
GUCACAUAGCACUGUUAAAUUUAUCCGAGGCAUAAGUAGUUCCUAGAGGAGACAGUCUAUCACUCCCCCUAGACCAGGCGCUUUGCGGUGACAGCUGGAGCUAUAUGGAU	0.349
CAGUCCACCCCUGCCUAAGGCUCAGGCUACCUGCUUUGGGGCACAGCUUCCUGGUACUCACAGCAUCUCAGAACAGGGUGCUUCCCUCUGCCUCCAGCUCCAAGGACUCU	0.654
GGGAGGUGGUUCACACCCCGGAAACAAGUGUCUGGUGGCUGGGCGGGGCCGGCAGGCACAGGGAGGAGGUACAGAAGCCGGCAACGCUUGCUAUUUAUUUUACAAACUGG	0.58
AACAACAAUCAUGAUAAUUAAAUUAAAACACUAGUUUGUUCACUUGUAGGACUGCAGUUCUGAAUUUUGGGUUAAAGGUUUUGGCUGCUGUAAGAAUGUGAAUUUGAAUG	2.56

Study 4 — cell line: HEK-293T; observed: pseudovirus infection; method: FDA-approved drug library screen; organism: VSV pseudotyped with SARS-CoV-2 spike; tested at: 10 µM; time: 16 h; relative to: vehicle-treated
SMILES	GFP-positive cells [%]
CCOC(=O)C(C)(C)Oc1ccc(Cl)cc1	95.2
OCCN1C[C@H](O)[C@@H](O)[C@H](O)[C@H]1CO	73.7
CC(=O)Nc1c(I)c(NC(C)=O)c(I)c(C(=O)O)c1I	80.1
CCCSc1nc(N[C@@H]2C[C@H]2c2ccc(F)c(F)c2)c2nnn([C@@H]3C[C@H](OCCO)[C@@H](O)[C@H]3O)c2n1	63.2

A few entries again (study 3):
Strand	RBNS enrichment (R)
CAGUCCACCCCUGCCUAAGGCUCAGGCUACCUGCUUUGGGGCACAGCUUCCUGGUACUCACAGCAUCUCAGAACAGGGUGCUUCCCUCUGCCUCCAGCUCCAAGGACUCU	0.654
UAAAUCCUUCAGGGGCGGGGACCGCCUUGCUCGGGAAGGAAGGUGCCAUGGCCUGCACCGUGGCGGUGGAAGAGAGCAUAGCACAUCACUACAACAACCAGAUCAGGACG	0.276
